Results gathered from unrelated publications.
Parts stem from different laboratories: compare values within a part only. Substitutions count along the parent as printed.

Series 1
Target: ABI1, truncated, D143A, DHFR fusion (Arabidopsis thaliana)
Technique: DHFR PCA, deep sequencing
Medium: yeast
Notes: methotrexate growth selection, single substitutions
Together with: (+)-ABA 2500 µM
Relative to: wild-type fitted maximum
Direction: higher = stronger binding
Parent: PYL1, truncated, DHFR fusion (Arabidopsis thaliana); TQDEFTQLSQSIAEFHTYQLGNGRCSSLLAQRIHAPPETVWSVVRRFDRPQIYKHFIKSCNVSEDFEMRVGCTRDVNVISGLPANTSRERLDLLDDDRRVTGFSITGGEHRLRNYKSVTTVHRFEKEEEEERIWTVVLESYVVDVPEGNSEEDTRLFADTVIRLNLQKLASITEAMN; partner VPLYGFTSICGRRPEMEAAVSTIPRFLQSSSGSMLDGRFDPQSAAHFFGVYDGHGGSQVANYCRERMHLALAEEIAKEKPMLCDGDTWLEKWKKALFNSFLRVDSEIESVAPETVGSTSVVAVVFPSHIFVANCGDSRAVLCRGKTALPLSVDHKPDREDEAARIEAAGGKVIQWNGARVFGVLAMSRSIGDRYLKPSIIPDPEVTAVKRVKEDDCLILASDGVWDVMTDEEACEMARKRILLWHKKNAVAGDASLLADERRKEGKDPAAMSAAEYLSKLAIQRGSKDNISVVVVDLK
| Variant | relative binding score |
| --- | --- |
| L20C | 102% |
| E89W | -14.9% |
| E67M | 93.7% |
| V44T | 76% |
| T154Y | 47.2% |
| N77C | 97.3% |
| T119Q | 101% |
| N61R | 99.5% |
| E174S | 93.1% |
| E147S | 94.2% |
| C72D | 97.7% |
| R113D | 100% |
| V145L | 93.4% |
| K54W | -1.77% |
| Q2L | 103% |
| V161R | -3.7% |
| Y53D | 12.1% |
| K54P | 9.44% |
| T39E | 96.5% |
| I172F | 92.5% |
| V78P | 89.6% |

Series 2
Target: CCNB1, cyclin fold, Cln2 fusion (human)
Technique: yeast growth competition, sequencing
Medium: yeast
Notes: weak parent motif
Relative to: not given
Direction: higher = stronger binding
Parent: CDKN1B docking peptide (human); PSACRNLFGPVDH
| Variant | normalised enrichment score |
| --- | --- |
| F8E | 0.146 |
| F8K | 0.491 |
| N6H | -0.00507 |
| R5P | 0.0331 |
| C4D | 0.193 |
| H13I | 0.13 |
| R5A L7A | -0.0847 |
| N6L | 0.758 |
| N6R | 0.279 |
| R5T | 0.235 |
| D12C | 0.515 |
| S2P | 0.971 |
| C4I | 0.743 |
| S2V | 0.557 |

Series 3
Target: Histone acetyltransferase KAT6A, winged helix 2, GST fusion (KAT6A, Homo sapiens, UniProt Q92794, residues 85-181)
Technique: protein binding microarray
Molecule type: double-stranded DNA, one strand shown
Medium: in vitro
Concentration: not given
Notes: 8-mer, flanks averaged, mean of 2 arrays, mostly near background
Relative to: not given
Direction: higher = stronger binding
Target sequence (chain): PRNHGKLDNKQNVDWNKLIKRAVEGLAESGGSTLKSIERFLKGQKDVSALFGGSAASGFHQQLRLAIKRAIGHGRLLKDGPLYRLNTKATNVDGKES
| Sequence | E-score |
| --- | --- |
| ACTAGAGC | -0.042 |
| AGAACAGA | 0.0992 |
| CTGCTGAC | 0.0805 |
| ACGCCCCA | 0.11 |
| CCGCGAAG | 0.138 |
| ATGGTTGA | 0.0347 |
| AATATTTG | 0.0951 |
| AACCGCTC | 0.0179 |
| CTCTCCGA | 0.0919 |
| CCACGAAA | -0.0102 |
| CACGTGTA | -0.192 |
| ATCAAAAT | 0.0526 |
| GCTTAAGA | 0.0254 |
| ATCGTCGC | 0.156 |
| ACCGTTCG | 0.166 |
| AGGTTGAT | -0.171 |
| CTAAGGAA | 0.0132 |
| AGGACACA | 0.105 |
| CCGACTCG | 0.187 |
| AGGGGATC | -0.141 |

Series 4
Target: RNA binding protein fox-1 homolog 2, RRM domain, GST-SBP tag (RBFOX2, Homo sapiens, UniProt O43251-10, residues 100-194)
Technique: RNA Bind-n-Seq
Molecule type: RNA
Medium: in vitro
Concentration: 365 nM
Notes: natural RNA segment, single round, ends assumed
Relative to: no-protein control
Direction: higher = stronger binding
Residues (chain): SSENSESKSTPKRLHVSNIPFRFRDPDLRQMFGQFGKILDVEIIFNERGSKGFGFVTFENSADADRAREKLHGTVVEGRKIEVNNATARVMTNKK
| Sequence | RBNS enrichment (R) |
| --- | --- |
| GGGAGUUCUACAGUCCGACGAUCAGAUGUUCCGUGGUGUUUGGUUUCCCUUUCUUCUCUCUCCUGCUCACUCUGCAUUAUAGCAGCAGCUUAUUUCUCUAAGGCUGGACAGCCUGGCUCUCGGCAGUGACGUCUGGAAUUCUCGGGUGCCAA | 0.613 |
| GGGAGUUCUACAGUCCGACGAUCCCACUGCCCCUUUCUGGUUUAAAAAAAUGGUGCUUGAUGAGGGAAGGUAGACUCUUCCCUAGGACUGACGAGUUACGGCUGCCAGAUGCCUGCAUGGGAAGAGGUGGACAUGGAAUUCUCGGGUGCCAA | 0.479 |
| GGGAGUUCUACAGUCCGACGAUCGUCUGUGCCCGCGGAGACCUCCUCUGACCAAGGGGCACUAGUAUGCCUUGCGCUAUCAUGACUGACUGGCCCAGUAUGAUUCUGUUGUCGCUGAUCUCCCGGAGGAGGAGUGGAAUUCUCGGGUGCCAA | 0.943 |
| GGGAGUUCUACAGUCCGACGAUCCUUUUAUUUAACAUAUAUAUUUAUUUUAACUCUCUUGGAAGAUGUGUGAGGGAAAAAAAUAACUCUCAUUUGAUCAGACACUAAAUAUUUGGGGUAGGGAUUUCUGUCUUUGGAAUUCUCGGGUGCCAA | 0.717 |
| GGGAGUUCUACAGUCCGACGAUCUGGAAGGGAACUGGGCCUCGGUGGCCGGGGCCGCGAGCUGUGACCACAGCACCCUCAAGCAUACGGCGCUGUUCCUGCCACUGUCCUGAAGAUGUGAAUGGGUGGUACGAUGGAAUUCUCGGGUGCCAA | 0.66 |
| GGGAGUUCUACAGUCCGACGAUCGAUAGAGGCAACAUACUGUUAAGUCAUAUUUAAGUAAUUAGUUUUCUCUUAAUGUUGCCAAUAGAAGGCUUGAGCAGGAAGCUUGUAGCACUGAUCUAAUUGUGUGUACAUGGAAUUCUCGGGUGCCAA | 0.504 |
| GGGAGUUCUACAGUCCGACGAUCCUGACAAAUUAUUGAUUAAUAAGAACUUGAAUUUCUGGAAGAUUCUUACUGUUAACCAAAUUUUGAGCAAGGAGUCUCAAAGGUAAUUCUGAACCAGAAUUACAUGUUAAUGGAAUUCUCGGGUGCCAA | 0.346 |
| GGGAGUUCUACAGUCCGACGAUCACUUUAAAGCGCUCCAGCCAACAGCUGUAGGUGAGACCUGGGAGGGGAGGAACUGCACCAGCGCACAAUCCUAAGAGCCUCGGCUCCUUGCCCAUUCACUUCAGUCUGCAUGGAAUUCUCGGGUGCCAA | 2.78 |
| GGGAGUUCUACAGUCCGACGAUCUAAUUCAUUCUCAGCCAAUGAAGGUUUGUCUAAGCUGCCUGGGUAUCCACGGGACAAAAACAGCAAACUCCCUCAGACUUUGUCCAUGUAUAAACUUGAAGUGGUUGUGUUGGAAUUCUCGGGUGCCAA | 0.286 |
| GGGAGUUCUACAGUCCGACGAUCUGCUUCUGCGCCUUCUGCGUUUGGACAUAGGACUCUGCAGGGCCGCCCUCUCUAACUGGCCUGGCUCUGGAAGGGCUGGUGAGGACUCUGCCUCCUUGCCUGCCUACAAGUGGAAUUCUCGGGUGCCAA | 0.575 |
| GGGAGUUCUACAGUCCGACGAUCGUGCAGCUGUGUCUUAUGUAUUUAUAUGUAUGUCGCUCUUCAAAAGCAACCUAGUUUAUGGGGCAGCUGGACUUUGCAUGUUAGAGUGAGCCCCAAGCCCCUUGGCCCACUGGAAUUCUCGGGUGCCAA | 35.1 |
| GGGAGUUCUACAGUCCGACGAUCAAAGUCCUGUCAGAUUGUGAAGAAAUGUUCCAGGAUACACUUGGAUUAGUUAUGCAGUAUUUCUUAUCAAUGUCUAGCCCUUGUGUAUUGUUCUGAAAACUAAAGUUUAAUGGAAUUCUCGGGUGCCAA | 0.617 |

Single results of other studies
| Molecule | target | assay | system | setting | how to read | quantity | result |
| --- | --- | --- | --- | --- | --- | --- | --- |
| PhoQ, residues 284 288 289 292 302 303 TGYLSA | PhoP, residues 12 14 15 18 19 TPWLV (Escherichia coli, UniProt P23836) | Sort-seq, item: YFP reporter | E. coli | PhoQ-PhoP variant library, together with: 10 µM Mg2+ | relative to: high Mg2+ state, higher = stronger signaling | fold induction | 15.6 |

For quick reference, copied from above (series 4):
| Sequence | RBNS enrichment (R) |
| --- | --- |
| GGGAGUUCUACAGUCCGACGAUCAGAUGUUCCGUGGUGUUUGGUUUCCCUUUCUUCUCUCUCCUGCUCACUCUGCAUUAUAGCAGCAGCUUAUUUCUCUAAGGCUGGACAGCCUGGCUCUCGGCAGUGACGUCUGGAAUUCUCGGGUGCCAA | 0.613 |
| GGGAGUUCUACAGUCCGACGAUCCUGACAAAUUAUUGAUUAAUAAGAACUUGAAUUUCUGGAAGAUUCUUACUGUUAACCAAAUUUUGAGCAAGGAGUCUCAAAGGUAAUUCUGAACCAGAAUUACAUGUUAAUGGAAUUCUCGGGUGCCAA | 0.346 |
| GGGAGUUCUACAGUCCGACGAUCCUUUUAUUUAACAUAUAUAUUUAUUUUAACUCUCUUGGAAGAUGUGUGAGGGAAAAAAAUAACUCUCAUUUGAUCAGACACUAAAUAUUUGGGGUAGGGAUUUCUGUCUUUGGAAUUCUCGGGUGCCAA | 0.717 |
| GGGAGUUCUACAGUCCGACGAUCGUGCAGCUGUGUCUUAUGUAUUUAUAUGUAUGUCGCUCUUCAAAAGCAACCUAGUUUAUGGGGCAGCUGGACUUUGCAUGUUAGAGUGAGCCCCAAGCCCCUUGGCCCACUGGAAUUCUCGGGUGCCAA | 35.1 |
| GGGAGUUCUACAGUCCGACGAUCAAAGUCCUGUCAGAUUGUGAAGAAAUGUUCCAGGAUACACUUGGAUUAGUUAUGCAGUAUUUCUUAUCAAUGUCUAGCCCUUGUGUAUUGUUCUGAAAACUAAAGUUUAAUGGAAUUCUCGGGUGCCAA | 0.617 |
| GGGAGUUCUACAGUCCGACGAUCACUUUAAAGCGCUCCAGCCAACAGCUGUAGGUGAGACCUGGGAGGGGAGGAACUGCACCAGCGCACAAUCCUAAGAGCCUCGGCUCCUUGCCCAUUCACUUCAGUCUGCAUGGAAUUCUCGGGUGCCAA | 2.78 |
| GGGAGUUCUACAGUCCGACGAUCUGCUUCUGCGCCUUCUGCGUUUGGACAUAGGACUCUGCAGGGCCGCCCUCUCUAACUGGCCUGGCUCUGGAAGGGCUGGUGAGGACUCUGCCUCCUUGCCUGCCUACAAGUGGAAUUCUCGGGUGCCAA | 0.575 |
| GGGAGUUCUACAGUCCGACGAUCGAUAGAGGCAACAUACUGUUAAGUCAUAUUUAAGUAAUUAGUUUUCUCUUAAUGUUGCCAAUAGAAGGCUUGAGCAGGAAGCUUGUAGCACUGAUCUAAUUGUGUGUACAUGGAAUUCUCGGGUGCCAA | 0.504 |
| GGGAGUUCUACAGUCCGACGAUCCCACUGCCCCUUUCUGGUUUAAAAAAAUGGUGCUUGAUGAGGGAAGGUAGACUCUUCCCUAGGACUGACGAGUUACGGCUGCCAGAUGCCUGCAUGGGAAGAGGUGGACAUGGAAUUCUCGGGUGCCAA | 0.479 |
